Measurements of several laboratories.
Each numbered part is a random draw from the data of one study; scales do not carry over between parts. Changes are numbered by the printed parent chain.

Sample 1 — method: protein binding microarray; form: double-stranded DNA, one strand shown; medium: in vitro; tested at: not given; relative to: not given; reading: higher = stronger binding
Target: Histone acetyltransferase KAT6A, both winged helices, GST fusion (KAT6A, Homo sapiens, UniProt Q92794, residues 1-181)
Notes: 8-mer, flanks averaged, mean of 2 arrays, mostly near background
Target sequence (chain): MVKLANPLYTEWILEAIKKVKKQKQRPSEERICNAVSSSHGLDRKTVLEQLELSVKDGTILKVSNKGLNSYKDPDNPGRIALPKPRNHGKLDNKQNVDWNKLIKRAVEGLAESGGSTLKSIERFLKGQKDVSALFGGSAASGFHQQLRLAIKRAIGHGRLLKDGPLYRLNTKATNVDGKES
Sequence	E-score
CGTCTTGA	0.0116
AACACAAG	-0.0805
AACCGAGC	0.173
ACTAAAGC	-0.0357
CAAGGGTC	-0.0081
AACATTCA	-0.0674
CCTTACAG	-0.0656
CCTCTCGC	-0.0323
GACTCTCA	-0.0693

Sample 2 — target: UBE2V2 UBC core domain (UniProt Q15819); method: yeast two-hybrid; medium: yeast; notes: mostly zero background; relative to: not given; reading: higher = stronger interaction
B1: TRIM68 RING domain (UniProt Q6AZZ1); chain LVEAIVEEVACPICMTFLREPMSIDCGHSFCHSCLSGLWEIPGESQNWGYTCPLCRAPVQPRNLRP
B2: TRIM32 RING domain (UniProt Q13049); chain NLDALREVLECPICMESFTEEQLRPKLLHCGHTICRQCLEKLLASSINGVRCPFCSKITRITSLTQ
B3: TRIM2 RING domain (UniProt Q9C040); chain VRQIDKQFLICSICLERYKNPKVLPCLHTFCERCLQNYIPAHSLTLSCPVCRQTSILPEKGV
B4: SHPRH RING domain (UniProt Q149N8); chain KTSGGVNPEPCPICARQLGKQWAVLTCGHCFCNECISIIIEQYSVGSHRSSIKCAICRQTTSHKEISY
B5: TRIM74 RING domain (UniProt Q86UV6); chain SLLELEDWLQCPICLEVFKESLMLQCGHSYCKGCLVSLSYHLDTKVRCPMCWQVVDGSSSLP
B6: RNF10 RING domain (UniProt Q8N5U6); chain VRICSHEVPSCPICLYPPTAAKITRCGHIFCWACILHYLSLSEKTWSKCPICYSSVHKKDLKS
B7: PJA2 RING domain (UniProt O43164); chain DHTAIGQEQCCPICCSEYIKDDIATELPCHHFFHKPCVSIWLQKSGTCPVCRRHFPPAVIEA
B8: MARCHF2 RING domain (UniProt Q9P0N8); chain RLLSTVIRALDTPSDGPFCRICHEGANGECLLSPCGCTGTLGAVHKSCLEKWLSSSNTSYCELCHTEFAVEKRPRPLTEWL
Construct (chain): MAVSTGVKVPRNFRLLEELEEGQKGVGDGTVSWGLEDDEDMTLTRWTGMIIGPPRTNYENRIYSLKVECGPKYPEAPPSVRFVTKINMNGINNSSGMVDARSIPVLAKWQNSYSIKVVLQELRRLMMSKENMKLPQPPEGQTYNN
Molecule	lacZ reporter activity
B1 (TRIM68 RING domain)	0
B2 (TRIM32 RING domain)	0
FLSKVEETFQCICCQELVFRPITTVCQHNVCKDCLDRSFRAQVFSCPACRYDLGRSYAMQ (UHRF1 RING domain (UniProt Q96T88))	0
B3 (TRIM2 RING domain)	0
B4 (SHPRH RING domain)	0
B5 (TRIM74 RING domain)	0
B6 (RNF10 RING domain)	0
VPADASPDSKCPICLDRFDNVSYLDRCLHKFCFRCVQEWSKNKAECPLCKQPFDSIFHSV (TOPORS RING domain (UniProt Q9NS56))	0
B7 (PJA2 RING domain)	0
B8 (MARCHF2 RING domain)	0

Sample 3 — method: RNA Bind-n-Seq; form: RNA; medium: in vitro; tested at: 100 nM; relative to: input RNA pool; reading: higher = stronger binding
Target: RING finger protein unkempt homolog, zinc fingers 1-6, SBP tag (UNK, Homo sapiens, UniProt Q9C0B0, residues 30-357)
Sequence of UniProt Q9C0B0 (30-357, looked up): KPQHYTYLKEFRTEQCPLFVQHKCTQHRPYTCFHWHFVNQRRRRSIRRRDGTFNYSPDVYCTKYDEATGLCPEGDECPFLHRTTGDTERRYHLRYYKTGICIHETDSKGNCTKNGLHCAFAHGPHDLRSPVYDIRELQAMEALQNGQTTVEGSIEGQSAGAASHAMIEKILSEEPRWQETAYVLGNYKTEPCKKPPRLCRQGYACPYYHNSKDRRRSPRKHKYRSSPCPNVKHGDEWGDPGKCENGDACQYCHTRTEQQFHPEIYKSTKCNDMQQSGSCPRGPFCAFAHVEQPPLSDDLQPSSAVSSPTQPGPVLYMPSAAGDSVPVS
Notes: RNA with constant flanks, vertebrate orthologous sites, ends assumed
Shared flanks, not repeated: GGGAGUUCUACAGUCCGACGAUC … CAACAGAGGAUUGAGCAUCA
Sequence	bound/input enrichment [ratio]
UUGUAUGGGCCUCGCAGGGUUGAGAUAAUAGAAGAUGAAACCGAACAGUAGUCUUCAUUUUAGUAUUAUGACUAGGUGUGGAAUAAAUGUUCCCUGUUGAUCUUACCUAUAAUCUGGGGC	1.19
AAAUUCCCCCAUUGUCACUGAGAACCACCAAAUCUGACUUUUACAUUUGGUCUCAGAAUUUAGGUUCCUGCCCUGUUGGUUUUUUUUUUUUUUUUUUAAAAAGUUUUCAAAAGUUCUUAA	1.18
UGUGUUGGGCAGAGUGCUCUGUACCAGUGCUCGUCAUCCCUUCUUCAUACCAACUGUCUCUAGUUAAUAGGAAUUUAAUAUUUUGAAAAGUUUUACAUUGCUGUAUAUUCAAAGAUUUGU	0.363
AUUGAACAAAAAACGUUUCCACUGGGUUUUGCCUAUAAGAAAAAAAUGUACCCGAGCACAUAGAGCUUUUUAAUAGCACUAACCAAUGCCUUUUUAGAUGUAUUUUUGAUGUAUAUAUCU	0.693
CCCCAGCACGUUGGUAAAGACUGUGGAUUGGCUGCUUGUGUUUUCCUUGUUCUUUUUAAUUAGUUUCAUUAUGUACGCUACCAUCCGCACUGAGAGUAUCCGGUGGCUGAUUCCAGGACA	0.946
CCUCCCCCUGACCCUAAAGUAGAUCUUUUUAAAAUUAUGUCACCACCACUUGUAAAAAUUUAGCAAUACCAGAAGAAAACGCUAAUGAAGUAAGAAAUUUUGCUCAUUGUUUUGCAAACC	3.96
UUGAACCUCCUGAACUUGCUUUCAAAUUGUGGCUGUUUCAGAAACUGGUUUUAUUUUCUUUAGGAUUUGCCCUGUUUCUUAUCUUCUCCUCCACGUUUCCAACGUUUGACUCAUGGAUUU	0.413

Sample 4 — method: RNA Bind-n-Seq; form: RNA; medium: in vitro; tested at: 365 nM; relative to: no-protein control; reading: higher = stronger binding
Target: RNA binding protein fox-1 homolog 2, RRM domain, GST-SBP tag (RBFOX2, Homo sapiens, UniProt O43251-10, residues 100-194)
Notes: natural RNA segment, single round, ends assumed
Shared flanks, not repeated: GGGAGUUCUACAGUCCGACGAUC … UGGAAUUCUCGGGUGCCAA
Residues (chain): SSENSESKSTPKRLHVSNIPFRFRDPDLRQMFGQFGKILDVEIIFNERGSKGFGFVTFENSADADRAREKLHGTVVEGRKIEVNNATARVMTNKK
Sequence	RBNS enrichment (R)
GUCUGUCCUGGGGACGUGGAGGGUGGCAGCGUCCCCGCCUGCACCAGUGCCGUCCUGCUGAUGUGGUAGGCUAGCAAUAUUUUGGUUAAAAUCAUGUUUGUGACUGUAAC	0.974
CAGAGCUGGAAAGCUCAUUUCUGGAAUGUUCUAUUUGAGAAUUGCCAUUUCUGGGGUUUGUCUGUUCUAUCUCCUGCCUACCAGUCGGUAUCUUCAGCUGUUUCUUCUAU	0.383
AUCCAACAACUAAAGAAUAAUCAUUGAAUGCGCGCAGUCGGUCCCUCACAGAGUGGCCCGUAUCACUCCCCACGUCUGUAGACACAUGGCUUUGAAUGAUUACUAUUUGG	0.633
GGAGCUACUCAUCCCCAGCAGUUAGCGCUCCGCCCCGGUUGACUCUUGAUGGCUUUGCGGAGCCCCUGCAAAGUGUCACUAGUCAAUGGGAACAAGAGGAAUGUCCCCUG	0.285
GAAGAGUGAUCUAUGUCUCUUCCCCCAGCAGCUCGGACCACUCCCAGCCCCCCAUCCCCCCGUUCCCCAGGGGAGCUGGGGAAUUCCUGCCAAGCACCUUGAAUGGGAGG	0.759
GCUUCCCCCCAGAGGGCAGUGGGGAUGCCUCCAGCCCCAGCCCCAAAUGGUGCUGCUACUGGAUCAGAUUGUGAACGGUUAACUCUGCCCUGAAGUGGGGGUGCGGGAAU	0.456

Sample 5 — method: RNA Bind-n-Seq; form: RNA; medium: in vitro; tested at: 200 nM; notes: whole 134-nt RNA, ends assumed; together with: 150 mM LiCl; relative to: input library; reading: higher = stronger binding; library: 7-deaza-guanosine replaces G
Target: Ras GTPase-activating protein-binding protein 1, full length (G3BP1, Homo sapiens, UniProt Q13283)
Sequence of UniProt Q13283 (whole entry, looked up): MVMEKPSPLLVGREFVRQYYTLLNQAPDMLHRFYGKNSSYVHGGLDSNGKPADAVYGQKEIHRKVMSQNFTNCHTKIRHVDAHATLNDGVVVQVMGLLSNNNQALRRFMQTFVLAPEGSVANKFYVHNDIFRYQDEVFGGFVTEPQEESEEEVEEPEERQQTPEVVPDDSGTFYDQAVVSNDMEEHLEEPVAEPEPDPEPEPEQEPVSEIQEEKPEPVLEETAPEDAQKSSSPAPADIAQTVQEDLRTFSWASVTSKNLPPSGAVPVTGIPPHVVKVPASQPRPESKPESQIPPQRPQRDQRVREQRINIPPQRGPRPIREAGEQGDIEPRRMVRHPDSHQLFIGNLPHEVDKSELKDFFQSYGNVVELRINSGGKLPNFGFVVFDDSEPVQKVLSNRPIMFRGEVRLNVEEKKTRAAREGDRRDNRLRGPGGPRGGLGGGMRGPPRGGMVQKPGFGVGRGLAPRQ
Shared flanks, not repeated: GGGAGUUCUACAGUCCGACGAUC … UGGAAUUCUCGGGUGUCAAGG
Sequence	log2 enrichment
AGUCCUGUGCUACACAUCGUAUGUACCGAAUCGGGGCCCCGGCCCCGGGGCCCCGGGGAAAGUAUUAUGUUACGCCGUUCGGAUCUGCAC	-1.24
UCCUGUGCUACACAUCGUAUGUACCGAAUCGGGGUUUUUUUGGGGAAAGGGGUUUGGGGAAAGUAUUAUGUUACGCCGUUCGGAUCUGCA	-0.331
UGGAAGUGGCGCUGGCGCCUGAAGAGUUGGAGCUGGAUCCUAUGGCCAUGACCCAGAAGUAUGAGGAGCAUGUGCGGGAGCAGCAGGCUC	-0.064
ACCAUGCAGGUGGGCAUCUUUGGGAAGUGGGGCAAGGGGGGGAUAAAAAGGGGGGUAACACUUUGGGAACAGGUGGUCCCAGGUCGUUUC	0.375
ACCAUGCAGGUGGGCAUCUUUGGGAACUGGGGCAAGGGGGGGAUAGGGAGGGGGGUAACACUUUGGGAACAGGUGGUCCCAGGUCGUUUC	0.555
UCAAGUCCUGUGCUACACAUCGUAUGUACCGAAUCGGGGAAGGGGAAGGAAGGGGAAAGUAUUAUGUUACGCCGUUCGGAUCUGCACUUC	-0.369
UCCUGUGCUACACAUCGUAUGUACCGAAUCGGGGUUUUUUUGGGGUUUGGGGUUUGGGGAAAGUAUUAUGUUACGCCGUUCGGAUCUGCA	0.181
AAGUCCUGUGCUACACAUCGUAUGUACCGAAUCGGGUUUUGGGGUUUUGGUUUUGGAAAGUAUUAUGUUACGCCGUUCGGAUCUGCACUU	-0.926
UGUGCUACACAUCGUAUGUACCGAAUCGGGGUUUUUGGGGAAAAAAAGGGGUUUUUUUGGGGAAAGUAUUAUGUUACGCCGUUCGGAUCU	-0.144

Sample 6 — target: CCNB2, cyclin fold, Cln2 fusion (human); method: yeast growth competition, sequencing; medium: yeast; notes: strong parent motif; relative to: not given; reading: higher = stronger binding
Parent: E2F1 docking peptide (human); PPVKRRLDFETDH
Variant	normalised enrichment score
R6K	4.13
D8Y	2.97
L7E	-0.133
L7W	0.542
R6A	2.25
F9W	0.891
D12W	3.05
R5E	-0.00756
P2F	1.63
E10L	2.29
R6E	1.75
P2Y	2.39
F9Q	0.417
F9I	0.281
E10V	2.17
E10I	1.98
